Experimental data collected from several papers.
Every numbered part comes from another study and shows a few of its results, in no order. Positions count from the first letter of the parent shown.

Set 1
Target: RING finger protein unkempt homolog, zinc fingers 1-6, GST-SBP tag (UNK, Homo sapiens, UniProt Q9C0B0, residues 30-357)
Method: RNA Bind-n-Seq
Molecule type: RNA
Matrix: in vitro
Tested at: not given
Notes: RNA with constant flanks, ends assumed
Reference: input RNA pool
Direction: higher = stronger binding
Residues (chain): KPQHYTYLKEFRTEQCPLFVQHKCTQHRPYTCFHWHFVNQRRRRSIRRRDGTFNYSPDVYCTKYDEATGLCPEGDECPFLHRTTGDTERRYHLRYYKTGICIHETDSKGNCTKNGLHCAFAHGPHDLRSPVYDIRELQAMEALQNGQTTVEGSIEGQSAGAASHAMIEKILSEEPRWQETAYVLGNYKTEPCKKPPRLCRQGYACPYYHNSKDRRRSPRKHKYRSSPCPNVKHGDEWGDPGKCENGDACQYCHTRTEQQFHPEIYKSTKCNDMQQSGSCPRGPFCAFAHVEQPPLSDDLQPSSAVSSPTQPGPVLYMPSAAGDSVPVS
Strand | bound/input enrichment [ratio]
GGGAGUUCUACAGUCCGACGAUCAGCUCACAGUGCCCCUAGUCUGGGUGCCCGCUGUCCCCGACAAAUGUAACCACCUCCCUGCCCCGAAUACACACACGUCCUCCGGUGCAUGCACAACCACCCAGCAUCUUUCUUUGUGAUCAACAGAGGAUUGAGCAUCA | 0.182
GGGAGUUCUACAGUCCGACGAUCUUGUGUUUUGUACAGGGCAUUCUCUGUACUAGUUUGUCGUGGUUAUAAAACAAUUAGCAGAACCGCCUACAUUUGUAUUUAUUUUCUAUUCCAUACUUCUGCCCACGUUGUUUUCUCUCACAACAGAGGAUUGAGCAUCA | 2.58
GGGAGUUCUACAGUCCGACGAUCUCAGCGAGGACCUCUGCAAGCCAAAAAAUGUCGUCCCAGCAAUAUCAGCAGCAACGCCGAAAAUUUGCAGCUGCCUUCCUGGCAUUGAUUUUCAUCUUGGCAGCUGUGGACACUGCUGAGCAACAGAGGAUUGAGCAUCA | 0.0782
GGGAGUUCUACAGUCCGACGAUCGCAAGGCAGAGCCACCAGAAACGUACACCUGAUUUUCAUGACAAAUACGGUAAUGCUGUAUCCGCCCGUGGAGCCACUUUCUGUAUUGUUACAUGGACAUAUGUAGCAACACAAGUCGGACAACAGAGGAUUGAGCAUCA | 0.131
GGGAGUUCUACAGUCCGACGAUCUACAUCACCAAUGUUCUACAAAAUCCUGAUUUGGCUCUGAGAAUGGCUGUACGUAAUAACUCCGCCGGUGCUGAAGAACUCUUUGCCCGGAAAUUUAAUGCUCUUUUUGCCCAGGGAAAUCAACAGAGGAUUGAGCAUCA | 0.426
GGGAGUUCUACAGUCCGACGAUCGAACAGGAUGAUGAAGAUGAUUUAUCUGCUGGCUUGGCACUGAUUGACCUGGGUCAGAGUACCGAUAUGAAACUUUUUCCAAAAGGAACUAUAUUCACAGCAAAGUGUGAAACAUCUGGUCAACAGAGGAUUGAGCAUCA | 0.226
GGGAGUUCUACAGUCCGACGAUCGCCACAAAAUAUUUAAUGUGUUGUGCCUUCAUGAUGUAACAGAACAUUCUCCAGGCCGGGCCGUUGGGGGAAAUAAAGGGAUAAAUCUCUAAUUAUUGCUGUUUAACUGUUUGUUAUCAUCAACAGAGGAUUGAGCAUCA | 0.423
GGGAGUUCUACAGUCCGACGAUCCUUAUCAAUCCAGAUGAACUGAGGGACAUCUGUUGGUCUAUGUAUAACUUUUAAAAUUGGUACCGUAUCUACAGAGUGUAUAAUUUAAACUAACCACAAAGCUUUACAUCUUCAUUUUGACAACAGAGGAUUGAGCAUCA | 0.163

Set 2
Target: Ras GTPase-activating protein-binding protein 1, C-terminal RGG region (G3BP1, Homo sapiens, UniProt Q13283)
Chain of UniProt Q13283 (whole entry, looked up): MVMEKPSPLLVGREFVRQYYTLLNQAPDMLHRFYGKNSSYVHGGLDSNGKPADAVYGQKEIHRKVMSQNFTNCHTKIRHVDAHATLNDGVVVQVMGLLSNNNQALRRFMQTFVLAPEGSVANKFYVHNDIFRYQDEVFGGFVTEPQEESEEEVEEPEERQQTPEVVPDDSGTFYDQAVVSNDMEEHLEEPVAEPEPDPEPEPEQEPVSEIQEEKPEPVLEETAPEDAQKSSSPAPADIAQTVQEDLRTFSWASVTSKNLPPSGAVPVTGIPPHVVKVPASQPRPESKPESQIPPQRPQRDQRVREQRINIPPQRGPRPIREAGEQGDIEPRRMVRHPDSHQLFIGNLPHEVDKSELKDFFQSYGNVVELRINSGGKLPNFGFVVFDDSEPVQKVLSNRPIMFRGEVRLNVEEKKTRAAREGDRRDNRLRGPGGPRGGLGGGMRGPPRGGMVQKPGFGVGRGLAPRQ
Method: RNA Bind-n-Seq
Molecule type: RNA
Matrix: in vitro
Tested at: 1 µM
Notes: whole 134-nt RNA, ends assumed
Added: 150 mM KCl
Reference: input library
Direction: higher = stronger binding
Strand | log2 enrichment
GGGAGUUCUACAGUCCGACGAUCAGUCCUGUGCUACACAUCGUAUGUACCGAAUCGGGGUUUGGGGUUUUUGGGGUGGGGAAAGUAUUAUGUUACGCCGUUCGGAUCUGCACUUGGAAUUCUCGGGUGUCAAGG | 2
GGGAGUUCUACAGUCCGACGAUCCAAGUCCUGUGCUACACAUCGUAUGUACCGAAUCGGUUUGGGUUUGGGUUUGGGGAAAGUAUUAUGUUACGCCGUUCGGAUCUGCACUUCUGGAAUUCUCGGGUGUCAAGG | -0.797
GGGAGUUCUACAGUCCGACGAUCGUCCUGUGCUACACAUCGUAUGUACCGAAUCGGGUUUUUUUGGGUUUGGGAAAAAGGGAAAGUAUUAUGUUACGCCGUUCGGAUCUGCACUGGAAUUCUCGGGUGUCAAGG | -0.61
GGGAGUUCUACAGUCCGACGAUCCACAGACAACACGCACCCACACAGACACAGAGGGAAGGGGUUGGGAUGGGUACAGGGUGCACAGCAGGGCGGGGUAGGACCCCAGCCCCUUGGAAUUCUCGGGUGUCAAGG | -0.457
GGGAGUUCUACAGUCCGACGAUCCUCAAGUCCUGUGCUACACAUCGUAUGUACCGAAUCGGAAAAAGGUGGAAAGGAAAGUAUUAUGUUACGCCGUUCGGAUCUGCACUUCCAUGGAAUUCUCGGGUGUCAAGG | -1.28
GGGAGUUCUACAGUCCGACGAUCGUCCUGUGCUACACAUCGUAUGUACCGAAUCGGGUUUUUUUGGGUGGGAAAAAAAGGGAAAGUAUUAUGUUACGCCGUUCGGAUCUGCACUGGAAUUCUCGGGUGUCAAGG | -0.463
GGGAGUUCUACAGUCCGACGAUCUCCUGUGCUACACAUCGUAUGUACCGAAUCGGGGCCCCCGGGCCCCCGGGCCCCCGGGGAAAGUAUUAUGUUACGCCGUUCGGAUCUGCAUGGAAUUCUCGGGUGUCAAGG | -2.28
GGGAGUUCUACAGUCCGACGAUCGCAGGAAGUAAAAACAAAUGGAAAUGCUUCGGAUAGUGACAGGGGUGGGGGUUGCUAAGGAAAGGGUGGGAUGGGAGUGGGUAAAGAGUUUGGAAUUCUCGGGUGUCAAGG | 0.874
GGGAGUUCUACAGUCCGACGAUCACCAUGCAGGUGGGGAUCUUUGGGAAGUGGGGCAAGGGGGGGAUAGGGAGGGGGGUAACACUUUGGGAACAGGUGGUCCCAGGUCGUUUCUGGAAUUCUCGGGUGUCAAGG | -1.56

Set 3
Target: CCNA2, cyclin fold, Cln2 fusion (human)
Method: yeast growth competition, sequencing
Matrix: yeast
Notes: strong parent motif
Reference: not given
Direction: higher = stronger binding
Starting sequence: RBL2 docking peptide (human); STTRRRLFVENDS; partner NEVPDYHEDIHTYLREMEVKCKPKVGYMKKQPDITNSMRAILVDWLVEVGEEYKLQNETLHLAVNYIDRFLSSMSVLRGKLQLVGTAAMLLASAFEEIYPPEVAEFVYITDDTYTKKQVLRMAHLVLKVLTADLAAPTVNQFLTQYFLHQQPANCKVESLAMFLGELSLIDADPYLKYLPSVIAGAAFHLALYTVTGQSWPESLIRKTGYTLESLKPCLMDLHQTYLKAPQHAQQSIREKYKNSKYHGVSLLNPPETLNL
Substitution | normalised enrichment score
STTRRRLFVENSS [D12S] | 5.51
ITTRRRLFVENDS [S1I] | 4.95
STTRDRLFVENDS [R5D] | 1.02
STTRRRGFVENDS [L7G] | -0.887
STGRRRLFVENDS [T3G] | 3.42
STTRRRLFVESDS [N11S] | 5.93
STTRRRPFVENDS [L7P] | -0.253
STTRRRLFVENNS [D12N] | 5.18
STTRRRNFVENDS [L7N] | 0.124
STTERRLFVENDS [R4E] | -0.944
NTTRRRLFVENDS [S1N] | 5.75
STTRRRLFVENDT [S13T] | 5.5
TTTRRRLFVENDS [S1T] | 5.21
STTRHRLFVENDS [R5H] | 1.09
STTRQRLFVENDS [R5Q] | 1.51
STTRRKLFVENDS [R6K] | 5.05

Set 4
Target: Histone acetyltransferase KAT6A, winged helix 2, GST fusion (KAT6A, Homo sapiens, UniProt Q92794, residues 85-181)
Method: protein binding microarray
Molecule type: double-stranded DNA, one strand shown
Matrix: in vitro
Tested at: not given
Notes: 8-mer, flanks averaged, mean of 2 arrays, mostly near background
Reference: not given
Direction: higher = stronger binding
Target sequence (chain): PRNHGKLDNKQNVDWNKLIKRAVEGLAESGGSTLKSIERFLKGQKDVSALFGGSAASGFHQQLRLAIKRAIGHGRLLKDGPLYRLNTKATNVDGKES
Strand | E-score
GCGGCAAC | 0.152
AGCCCACG | 0.0838
ATGATGGC | -0.118
CCATGTTC | -0.0498
GGTCACTA | 0.0742
AATTGTGC | 0.0203
AATCGCAG | 0.141
AATCACCC | -0.0488
CGTATGTC | -0.135
AACACTGC | 0.0686
ACTTCTTA | -0.208
CCTTGAGA | 0.0286
CACCGGGG | -0.0123
AGGTCAAG | -0.0214
ACCAGAGC | 0.139
AGACACTG | -0.0313
GCGCTTGA | 0.0662

A few entries again (set 4):
Strand | E-score
CGTATGTC | -0.135
AACACTGC | 0.0686
ACTTCTTA | -0.208
CCTTGAGA | 0.0286
CACCGGGG | -0.0123
AGGTCAAG | -0.0214
ACCAGAGC | 0.139
AGACACTG | -0.0313
